Measurements of several laboratories.
Each numbered part is a random draw from the data of one study; scales do not carry over between parts.

Block 1
Target: Histone acetyltransferase KAT6A, both winged helices, GST fusion (KAT6A, Homo sapiens, UniProt Q92794, residues 1-181)
Technique: protein binding microarray
Molecule type: double-stranded DNA, one strand shown
Sample: in vitro
Tested at: not given
Setting: 8-mer, flanks averaged, mean of 2 arrays, mostly near background
Baseline: not given
Direction: higher = stronger binding
Measurement: E-score
Residues (chain): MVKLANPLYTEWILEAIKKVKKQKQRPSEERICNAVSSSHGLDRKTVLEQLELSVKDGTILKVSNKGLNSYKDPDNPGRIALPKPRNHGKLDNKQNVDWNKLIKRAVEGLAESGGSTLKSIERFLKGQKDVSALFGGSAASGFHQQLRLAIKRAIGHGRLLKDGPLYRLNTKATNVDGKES
GCGAGGAC: 0.00375
ATTTGCCC: -0.0462
CACTCGTC: -0.0264
CCAGACAA: -0.191
AATTCGCG: 0.212
ACGATCCA: -0.14
GGCACGCC: 0.0952
ATAGAGGA: -0.283
AACGACGC: 0.115
ACGAGGAG: -0.263
ATCCTCAT: -0.168
ACTCGAGG: -0.0773
AATGCCTC: -0.149
ATGGCAGC: -0.0132
AACAGGCG: 0.111
ACAGAAGA: -0.0473
TATACACA: -0.0309
CCACACCG: 0.0655
AAGAGCAG: -0.0979
CATAGTTC: -0.137
CTCAGCAG: -0.215
ACTAAGAG: -0.118
CCGTACAC: 0.19
CCTCGGAC: 0.15
CCATAGCG: 0.106

Block 2
Target: Ras GTPase-activating protein-binding protein 1, full length (G3BP1, Homo sapiens, UniProt Q13283)
Sequence of UniProt Q13283 (whole entry, looked up): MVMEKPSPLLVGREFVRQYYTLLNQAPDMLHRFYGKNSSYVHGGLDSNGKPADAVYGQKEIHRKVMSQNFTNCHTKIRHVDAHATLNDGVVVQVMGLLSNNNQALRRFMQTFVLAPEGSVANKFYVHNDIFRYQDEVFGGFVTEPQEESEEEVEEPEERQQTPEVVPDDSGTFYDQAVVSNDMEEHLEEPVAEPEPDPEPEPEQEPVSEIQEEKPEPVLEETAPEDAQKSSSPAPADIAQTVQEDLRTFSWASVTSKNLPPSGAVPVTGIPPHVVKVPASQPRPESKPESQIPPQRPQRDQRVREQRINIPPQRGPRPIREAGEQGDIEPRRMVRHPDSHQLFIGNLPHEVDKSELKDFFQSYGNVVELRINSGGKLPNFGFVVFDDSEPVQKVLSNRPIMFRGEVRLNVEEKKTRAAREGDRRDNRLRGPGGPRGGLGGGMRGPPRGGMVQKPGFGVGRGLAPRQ
Technique: RNA Bind-n-Seq
Molecule type: RNA
Sample: in vitro
Tested at: 200 nM
Setting: whole 134-nt RNA, ends assumed
Added: 150 mM KCl
Baseline: input library
Direction: higher = stronger binding
Measurement: log2 enrichment
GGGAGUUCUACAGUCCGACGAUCUAACUUUAGAGGAGGAUCUGAUGGGUAUGGCAGUGGACGUGGAUUUGGGGAUGGCUAUAAUGGGUAUGGAGGAGGACCUGGAGGUGGCAAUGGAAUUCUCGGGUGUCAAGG: 0.41
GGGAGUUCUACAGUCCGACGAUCCUCAAGUCCUGUGCUACACAUCGUAUGUACCGAAUCGGGAAAGGGAGGGUGGGAAAGUAUUAUGUUACGCCGUUCGGAUCUGCACUUCCAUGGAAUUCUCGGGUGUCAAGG: 1.21
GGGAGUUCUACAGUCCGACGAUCACCAUGCAGGUAAACAUCUUUGGGAAGUGGGGCAAGGGGGGGAUAGGGAGGGGGGUAACACUUUGGGAACAGGUGGUCCCAGGUCGUUUCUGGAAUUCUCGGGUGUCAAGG: 1.22
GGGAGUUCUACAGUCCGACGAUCUGAAGACUAUGAGACUGCUCUAUCAGGAAAGGAAGCCCUUUCGGCUGCGCUGCGCUCACAAAACCUCACCAAGAGUACAGAGAACCACAGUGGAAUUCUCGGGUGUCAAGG: 0.287
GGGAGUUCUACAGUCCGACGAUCAGUCCUGUGCUACACAUCGUAUGUACCGAAUCGGGGUUUUUGGGGAGGGGAAAGGGGAAAGUAUUAUGUUACGCCGUUCGGAUCUGCACUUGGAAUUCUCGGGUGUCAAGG: 0.359
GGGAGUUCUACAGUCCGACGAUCCCUCAAGUCCUGUGCUACACAUCGUAUGUACCGAAUCGGUUUUUGGUGGUGGAAAGUAUUAUGUUACGCCGUUCGGAUCUGCACUUCCAGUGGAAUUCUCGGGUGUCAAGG: -0.0475
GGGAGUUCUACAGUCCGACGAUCCCUCAAGUCCUGUGCUACACAUCGUAUGUACCGAAUCGGUUUGGUGGAAAGGAAAGUAUUAUGUUACGCCGUUCGGAUCUGCACUUCCAGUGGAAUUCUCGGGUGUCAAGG: -0.00438
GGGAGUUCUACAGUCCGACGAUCCCUCAAGUCCUGUGCUACACAUCGUAUGUACCGAAUCGGUGGGGUGGUGGGGAAAGUAUUAUGUUACGCCGUUCGGAUCUGCACUUCCAGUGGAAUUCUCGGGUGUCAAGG: 0.42
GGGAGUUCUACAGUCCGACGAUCGUCCUGUGCUACACAUCGUAUGUACCGAAUCGGGGAGGGGAAAAAAAGGGGUUUGGGGAAAGUAUUAUGUUACGCCGUUCGGAUCUGCACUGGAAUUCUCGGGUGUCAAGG: 0.312

Block 3
Target: Sal-like protein 4, full length isoform B (SALL4, Homo sapiens, UniProt Q9UJQ4-2, residues 1-616)
Technique: universal PBM
Molecule type: double-stranded DNA, one strand shown
Sample: in vitro
Tested at: not given
Setting: 8-mer, flanks averaged, mean of replicates
Direction: higher = stronger binding
Measurement: E-score
Residues (chain): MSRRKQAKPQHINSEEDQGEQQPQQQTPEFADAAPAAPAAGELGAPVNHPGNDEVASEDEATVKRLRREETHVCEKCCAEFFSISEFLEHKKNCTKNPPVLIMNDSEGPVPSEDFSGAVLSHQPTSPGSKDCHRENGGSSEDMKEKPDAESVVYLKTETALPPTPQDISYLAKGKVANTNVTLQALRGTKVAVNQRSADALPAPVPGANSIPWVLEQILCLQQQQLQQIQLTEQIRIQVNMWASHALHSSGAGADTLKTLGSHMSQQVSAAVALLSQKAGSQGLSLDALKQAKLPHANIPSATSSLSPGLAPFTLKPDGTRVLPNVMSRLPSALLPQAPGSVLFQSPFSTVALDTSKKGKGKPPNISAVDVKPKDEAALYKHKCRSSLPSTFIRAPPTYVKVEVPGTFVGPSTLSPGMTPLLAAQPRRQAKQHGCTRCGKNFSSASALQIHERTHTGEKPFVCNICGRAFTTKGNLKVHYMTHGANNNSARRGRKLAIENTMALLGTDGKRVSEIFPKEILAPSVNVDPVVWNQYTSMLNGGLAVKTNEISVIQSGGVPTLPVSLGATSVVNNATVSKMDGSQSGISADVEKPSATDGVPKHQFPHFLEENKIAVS
GCCTTAAC: -0.138
ATGGCGAA: 0.0602
AGGCTCGA: -0.08
CGAGGTTA: -0.0149
ACTCGCTC: -0.18
ATCAGCAC: 0.0678
CCTATCCC: -0.142
ACACCATG: -0.11
CCGCCCGC: -0.325
GGGGCAAC: -0.216
CGCGGTCC: -0.36
CAACTTTC: 0.104
ATAAACTA: 0.362
ATAGGGTG: -0.0203
CCCATCAG: -0.295
TCCGAAAA: -0.0436
ACTTTAAA: 0.252
CAATGCTA: 0.172
ATTCTTCG: 0.117
AGGACTCC: -0.218
CTATGTGC: 0.094
AATGCCCC: -0.242
GGGAAGAA: -0.0368
CCCCAACA: -0.116
GGTGAGCA: -0.199

Block 4
Target: RNA binding protein fox-1 homolog 2, RRM domain, GST-SBP tag (RBFOX2, Homo sapiens, UniProt O43251-10, residues 100-194)
Technique: RNA Bind-n-Seq
Molecule type: RNA
Sample: in vitro
Tested at: 365 nM
Setting: natural RNA segment, single round, ends assumed
Baseline: no-protein control
Direction: higher = stronger binding
Measurement: RBNS enrichment (R)
Construct (chain): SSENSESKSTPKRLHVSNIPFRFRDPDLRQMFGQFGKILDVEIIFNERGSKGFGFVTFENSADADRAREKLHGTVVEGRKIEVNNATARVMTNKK
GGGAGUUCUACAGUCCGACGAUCUUUAAAAUAAAGCCCUGGGCCAGAAAGGCAAUGUGGCUAAAGAAUGUAUUGCACUAUACUUCUAAUGGAACUAAUCAUCUCCACCAUAGUGUGUGCCUUCUAUAAAGGAGUGGAAUUCUCGGGUGCCAA: 0.494
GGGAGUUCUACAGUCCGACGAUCGGGGCUUCUGUGAGAGGCAGAGGGGGACCCUCACCAAAUCUUGGUGGAAGAGCCCAGGGGCUGGUCCCAGAACAGGCAGUCUCACAAGCACGCAGCACACUGGAGUGGACUGGAAUUCUCGGGUGCCAA: 6.17
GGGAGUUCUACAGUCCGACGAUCGACAGACUUUGGUUGCUGUAUUCAAGUAUUUGGAUUAUGACUGUGGAGGAGGGCUUGCUUAAGAUAUGUGGUUGUGUUUUUUUGUGGAAAAGUAAGGAGUUAGGUGGCUUUGGAAUUCUCGGGUGCCAA: 4.09
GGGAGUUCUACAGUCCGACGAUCGUUUUUGUUCUUUUUCUGAAGGUGGGGAGGGGAAUAUUCAUAUUGACUUUAUAUUUAAUACAUCUGCUGAUGCUUCGGGGCAUGUCCUGCCACAGGAUUUGCUAAUGUCUUGGAAUUCUCGGGUGCCAA: 0.87
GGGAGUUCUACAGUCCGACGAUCAAAACCAGAACCUGGCAAGGGACUCACUAGCCUGGAUGGCCCAUGGGAGACCAGGACAGAUGAGAAGGAGCAGAAGAGCCCUGUGCCCAGAAGACCCAACUGGUGCCAAGUGGAAUUCUCGGGUGCCAA: 0.36
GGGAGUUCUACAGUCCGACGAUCUAUAUUAAUUUUAAUUUGCUGCUAAGCAAAGACUAGGGACAGGCAAAGAUAAUUUAUGGCAAAGUGUUUAAAUUGUUUAUACAUAAAUAAAGUCUCUAAAACUCCUGUGGUGGAAUUCUCGGGUGCCAA: 0.501
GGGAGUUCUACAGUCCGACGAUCUCAGACACUCCUGCCUCAGUUUCUUAGAACAGUGUUGCUAUUGAUGCUUAAGAAUAAUUGCCUCUUGGGCAAGAUGAUUGGGCUCCUGGCAAAUGUUCAAUUAAAAAGUGUGGAAUUCUCGGGUGCCAA: 0.301
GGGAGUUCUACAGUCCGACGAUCGAAUUGCGGUCGUCAAAACAAAACAAAACAAACAAAAAAAAACAAUCUAGCCUAGCUGGCCUUAUUUGGGAAGCGUAACUGCUUUUAGCAUAUGGGAGUAUUUUUUCACAUGGAAUUCUCGGGUGCCAA: 0.489

A few entries again (block 1):
ATCCTCAT: -0.168
ACTCGAGG: -0.0773
AATGCCTC: -0.149
ATGGCAGC: -0.0132
AACAGGCG: 0.111
ACAGAAGA: -0.0473
TATACACA: -0.0309
CCACACCG: 0.0655
